# Experimental data gathered from unrelated publications.
# Each line is one published result; not all experiments were run side by side. “And” joins repeats or separate records; there may be more than shown. ± marks the error that the study gave.
Structure (SMILES),assay,system,setting,how to read,quantity,value
Cc1cc(-c2ccc(C(=O)[C@@H]3CCCC[C@H]3C(=O)Nc3cnn4c3C(=O)NCC4)cc2)[nH]n1,,"human, faeces","oral, 200 mg, 240-264 h",reference: dose,radioactivity recovery per interval,0.16% and 0.2%
COC(=O)C(C)n1nc(Cn2cc3cc(OCC[18F])c(Cl)cc3n2)c2ccccc2c1=O (racemic),,"rat, plasma",90 min,,parent compound,3%
CC(=O)N1CCN(C(=O)c2ccc(Nc3nccc(-c4ccc(Cl)cc4)n3)cc2)CC1,,NSG mice,"dose not given, day 4",,body weight,24.9 g and 25 g and 26 g and 23.6 g
CCCCN1C(=O)c2cccc3c(NCCN4CCOCC4)ccc(c23)C1=O,,ethylene glycol,,,emission maximum,535 nm
O=C(Nc1cnccc1-c1ccc([18F])nc1)c1ccnc(NC(=O)C2CC2)c1,,"FVB/NJ mice (both sexes), skin","intravenous, dose not given, 120 min, together with: tariquidar 15 mg/kg i.v. pre-dose",,SUV,0.127
CN[C@H]1CC[C@H]([C@@]2(C)Oc3c(Cl)cc(C(=O)NCc4c(C)cc(C)[nH]c4=O)c(C)c3O2)CC1,,"healthy men, urine and feces","oral, 200 mg [14C]-valemetostat",reference: dose,excretion,1.64%
CC[C@H](C)[C@@H]1NC(=O)[C@H](Cc2ccccc2)NC(=O)CCSCc2cccc(c2)CSCCNC(=O)[C@H](C)NC(=O)[C@H](Cc2ccc(O)cc2)NC(=O)[C@H](CC(=O)O)NC(=O)[C@H](Cc2ccc(F)cc2)NC(=O)[C@H](CC(C)C)NC(=O)[C@H](CCCCN)NC1=O,PAMPA,,"200 µM, 5 h, pH 7.4",,membrane retention,< -0.1%
CC(C)(c1cc(Br)c(O)c(Br)c1)c1cc(Br)c(O)c(Br)c1,,whole cow milk,2000 nM nominal,,dose fraction in milk fat,45.7%
COc1cccc(OC)c1-c1cc(C(=O)NC2(C(=O)O)C3CC4CC(C3)CC2C4)nn1-c1ccc(C(=O)N(C)CCOCCN(C)C(=O)[C@H](CCCCNC(=O)[C@H](CC(C)C)NC(=O)C2OC2C(=O)O)NC(=O)CN2CCN(CC(=O)[O-])CCN(CC(=O)[O-])CCN(CC(=O)[O-])CC2)cc1C(C)C.[177Lu+3] (mixture of isomers),,mouse HT-29 xenograft,"24 h, biodistribution",reference: tumour over spleen,tumour-to-spleen ratio,3.74
CCCCN1C(=O)c2cccc3c(NCCCCN4CCOCC4)ccc(c23)C1=O,,acetonitrile,,,emission maximum,520 nm
COc1cnc2cccc(N3CCc4c(cc(Cn5ccnc5)cc4-c4cn(C)nc4C(F)(F)F)C3=O)c2c1,,"male CD-1 mouse, plasma","intraperitoneal, 10 mg/kg",,half-life,48 min
C[C@H](CCC(=O)NCC(=O)O)[C@H]1CC[C@H]2[C@@H]3[C@H](O)C[C@@H]4C[C@H](OS(=O)(=O)O)CC[C@]4(C)[C@H]3CC[C@]12C,,"human, plasma",endogenous baseline diurnal,reference: daily mean concentration,relative peak deviation,95.2 ± 10%
CCCCN1C(=O)c2cccc3c(NCCCCCCCCN4CCOCC4)ccc(c23)C1=O,,ethylene glycol,,,emission maximum,545 nm
COc1ccnc(C(=O)N[C@H]2COC(=O)[C@H](Cc3ccccc3)[C@@H](OC(=O)C(C)C)[C@H](C)OC2=O)c1O,,"UK acid sand A1, OC 0.8%",pH 3.9,,Freundlich KFoc,2810 mL/g
CC[C@H](C)[C@@H]1NC(=O)[C@H](Cc2ccc(O)cc2)NC(=O)CCCSC[C@@H](C(=O)N(CC(=O)N[C@@H](CC(C)C)C(=O)NCC(N)=O)Cc2ccc(F)cc2)NC(=O)[C@H](CC(N)=O)NC(=O)[C@H](CCC(N)=O)NC1=O,,human,"intranasal and intravenous, 400 µg intranasal and 20 µg intravenous",,adverse drug reactions,50%
CCCCN1C(=O)c2cccc3c(NCCCCCN4CCOCC4)ccc(c23)C1=O,,dichloromethane,,,emission maximum,508 nm
O=C(Nc1cnccc1-c1ccc([18F])cc1)c1ccnc(NC(=O)C2CC2)c1,ex vivo gamma counting,"GSK-3β transgenic mice, late-stage, hippocampus","intravenous, 120 min, mean, P-gp inhibitor pretreatment, together with: tariquidar 15 mg/kg iv",,SUV,0.24
C=C(NC(=O)c1csc(-c2nc3c(cc2O)-c2nc(cs2)C(=O)NC(C(C)O)C(=O)NC(=C(C)OC)c2nc(cs2)C(=O)NC2c4nc(cs4)C(=O)NC(COC(=O)c4c5c6c(cccc6n4O)COC(=O)C(OC4CC(C)(O)C(N(C)C)C(C)O4)C2OC5)c2nc-3cs2)n1)C(N)=O (centres unmarked),,"cynomolgus monkey, both sexes, plasma","intravenous infusion, 1.5 mg/kg twice daily, 0 to 6 h after first dose",,AUC(0-tau),14.7 ± 2.78 µg·h/mL
C=CC(=O)Nc1cc(Nc2nccc(-c3cn(C)c4ccccc34)n2)c(OC)cc1N(C)CCNC,,human plasma,"24 h, storage stability, low QC sample",,recovery,66.1%
COc1cc2oc(-c3ccc(C(F)(F)F)cc3F)cc(=O)c2c(O)c1O,cyclic voltammetry,"DMSO, 0.1 M Bu4NPF6",25 °C,,half-wave potential,-1.82 V vs Ag/AgCl
CCC(CC)n1c(Cc2cccs2)nc2cc(C(=O)NC(CC(=O)O)CC(C)C)ccc21 (centres unmarked),,normal mice,"dose not given, 2 weeks",,cardiomyocyte surface area,increased
O=C(NS(=O)(=O)c1cccs1)c1cc2ccccc2n1Cc1ccc(Br)c2ccccc12,,"KM mouse, chronic hyperuricaemia model","dose not given, day 4",,body weight,27.8 g and 28.5 g and 28.8 g and 25.6 g and 28.9 g and 27.6 g
C/C(N)=N/C(=N\S(=O)(=O)c1ccc(C(F)(F)F)cc1)N1C[C@H](c2ccccc2)C(c2ccc(Cl)cc2)=N1,,"beagle dog, plasma","oral, 36 mg/kg",,Cmax,2.49 µg/mL
COc1cccc(OC)c1-c1cc(C(=O)NC2(C(=O)O)C3CC4CC(C3)CC2C4)nn1-c1ccc(C(=O)N(C)CCOCCOCCN(C)C(=O)[C@H](CCCCNC(=O)[C@H](CC(C)C)NC(=O)C2OC2C(=O)O)NC(=O)CN2CCN(CC(=O)[O-])CCN(CC(=O)[O-])CCN(CC(=O)[O-])CC2)cc1C(C)C.[177Lu+3] (mixture of isomers),,mouse HT-29 xenograft,"4 h, biodistribution",reference: tumour over pancreas,tumour-to-pancreas ratio,7.52
CC(C)=CCC1=C([O-])C(=O)c2ccccc2C1=O.CC(C)=CCC1=C([O-])C(=O)c2ccccc2C1=O.Cc1cc2cccnc2c2ncccc12.O.[Cu+2],cyclic voltammetry,"CH2Cl2, Bu4NPF6",0.1 mM,reference: Ag/AgCl sat. KOH,Epc1 cathodic peak potential,0.85 V
COc1cc(-c2nc3ccccc3s2)cc(CN2CCN(C)CCN(Cc3cc(-c4nc5ccccc5s4)cc(OC)c3O)CC2)c1O,UV-vis spectrophotometric titration,aqueous NaCl 0.1 M,"20 µM, 25 °C, pH 3 to 11",,pKa2,7.13
CC(C)(C)C(=O)Nc1ccc2[nH]c(CN3CCC(N(CCCN4CCOCC4)CC4OC(n5cnc6c(N)ncnc65)C(O)C4O)CC3)nc2c1 (centres unmarked),,"male Sprague-Dawley rat, plasma","intravenous, 20 mg/kg, 4.98 min",,concentration,5.62 µg/mL
CN(C)C(=O)c1ccnc(N2Cc3cn(Cc4ccc(Cl)cc4)nc3C2)n1,metabolic stability,"rat, liver microsomes",,,half-life,373 min
CC(C)CCCC(C)C1CCC2C3CC=C4CC(OC(=O)NCCOCCOCCOCCn5cc(CN(CCCNC(=O)c6ccc(C(=O)[O-])c(-c7c8ccc(=O)cc-8oc8cc(O)ccc78)c6)CCCNc6ncnc7c6ncn7C6OC(COP(=O)(O)OP(=O)(O)OP(=O)(O)OCC7OC(n8c[n+](C)c9c(O)nc(N)nc98)C(O)C7O)C(O)C6O)nn5)CCC4(C)C3CCC12C (centres unmarked),fluorescence correlation spectroscopy,water,36 °C,,diffusion coefficient,159 ± 36 µm²/s
Cc1ccc(OCC(=O)N(Cc2cccs2)c2ccn[nH]2)cc1,,rabbit liver microsomes,"10 µM, 60 min, without NADPH",,remaining compound,2.76%
CCCCN1C(=O)c2cccc3c(NCCCN4CCOCC4)ccc(c23)C1=O,,ethylene glycol,,,emission maximum,541 nm
O=C1C2CC3CC1CC(C(=O)N1CCN(c4ccc([N+](=O)[O-])c5ncccc45)CC1)(C3)C2,,"ICR mice male, plasma","intravenous, 1 mg/kg",,Vss,0.842 L/kg
COc1cccc(OC)c1-c1cc(C(=O)NC2(C(=O)O)C3CC4CC(C3)CC2C4)nn1-c1ccc(C(=O)N(C)CCCN(C)C(=O)[C@H](CCCCNC(=O)[C@H](CC(C)C)NC(=O)C2OC2C(=O)O)NC(=O)CN2CCN(CC(=O)[O-])CCN(CC(=O)[O-])CCN(CC(=O)[O-])CC2)cc1C(C)C.[177Lu+3] (mixture of isomers),,"mouse, HT-29 xenograft, kidney",168 h post injection,,tissue uptake,1.17 %ID/g
Cc1cnc2nc1Nc1cccc(c1)COC/C=C/COCc1cc(ccc1OCCN1CCOCC1)N2,,"BALB/c mice, rhEPO-induced polycythemia","100 mg/kg, day 5",,body weight,18.7 g and 19.2 g and 17.6 g and 18.8 g and 18.2 g
CC(=O)N([O-])CCCCCNC(=O)CCC(=O)N([O-])CCCCCNC(=O)CCC(=O)N([O-])CCCCCN.[89Zr+4],,"mouse, pancreas",4 h,,tracer uptake,1.01 %ID/g
CCCCN1C(=O)c2cccc3c(NCCCCCCN4CCOCC4)ccc(c23)C1=O,,dichloromethane,,,emission maximum,517 nm
CN(C)C(=O)c1cccc(N2Cc3cn(Cc4cccc(C(F)(F)F)c4)nc3C2)c1,metabolic stability,"rat, liver microsomes",,,half-life,33 min
O=C([O-])CN1CCN(CC(=O)[O-])CCN(C(CO)C(O)CO)CCN(CC(=O)[O-])CC1.[Dy+3] (centres unmarked),ICP-MS,"female cynomolgus monkey, plasma","intravenous bolus, 0.1 mmol/kg, lanthanide mixture, geometric mean",,AUC(0-inf),911 µM·h
C[C@]12C[C@H](c3ccc(S(C)(=O)=O)cc3)C3=C4CCC(=O)C=C4CC[C@H]3[C@@H]1CC[C@@]2(O)C(F)(F)C(F)(F)F,measured: compound (parent),"healthy human volunteers, pooled plasma","oral, 5 mg daily, day 28, 6 h",,plasma concentration,0.0221 µg/mL
CC(C)(O)c1ncc([S@](N)(=O)=NC(=O)Nc2c3c(cc4c2CCC4)CCC3)s1,,healthy human subjects,"oral, 100 mg, capsule, fasted",,subjects with gastrointestinal adverse events,40%
C=CC(=O)N1CCCC(n2c(=O)c3ncccc3n(Cc3ccc(Oc4ccccc4)cc3)c2=O)C1 (centres unmarked),metabolic stability,"male Sprague-Dawley rat, hepatocytes","1 µM, 90 min",,compound remaining,0%

# Repeated from above:
Structure (SMILES),assay,system,setting,how to read,quantity,value
CC(C)CCCC(C)C1CCC2C3CC=C4CC(OC(=O)NCCOCCOCCOCCn5cc(CN(CCCNC(=O)c6ccc(C(=O)[O-])c(-c7c8ccc(=O)cc-8oc8cc(O)ccc78)c6)CCCNc6ncnc7c6ncn7C6OC(COP(=O)(O)OP(=O)(O)OP(=O)(O)OCC7OC(n8c[n+](C)c9c(O)nc(N)nc98)C(O)C7O)C(O)C6O)nn5)CCC4(C)C3CCC12C (centres unmarked),fluorescence correlation spectroscopy,water,36 °C,,diffusion coefficient,159 ± 36 µm²/s
O=C(NS(=O)(=O)c1cccs1)c1cc2ccccc2n1Cc1ccc(Br)c2ccccc12,,"KM mouse, chronic hyperuricaemia model","dose not given, day 4",,body weight,27.8 g and 28.5 g and 28.8 g and 25.6 g and 28.9 g and 27.6 g
O=C(Nc1cnccc1-c1ccc([18F])cc1)c1ccnc(NC(=O)C2CC2)c1,ex vivo gamma counting,"GSK-3β transgenic mice, late-stage, hippocampus","intravenous, 120 min, mean, P-gp inhibitor pretreatment, together with: tariquidar 15 mg/kg iv",,SUV,0.24
O=C([O-])CN1CCN(CC(=O)[O-])CCN(C(CO)C(O)CO)CCN(CC(=O)[O-])CC1.[Dy+3] (centres unmarked),ICP-MS,"female cynomolgus monkey, plasma","intravenous bolus, 0.1 mmol/kg, lanthanide mixture, geometric mean",,AUC(0-inf),911 µM·h
CN(C)C(=O)c1cccc(N2Cc3cn(Cc4cccc(C(F)(F)F)c4)nc3C2)c1,metabolic stability,"rat, liver microsomes",,,half-life,33 min
COc1cccc(OC)c1-c1cc(C(=O)NC2(C(=O)O)C3CC4CC(C3)CC2C4)nn1-c1ccc(C(=O)N(C)CCOCCN(C)C(=O)[C@H](CCCCNC(=O)[C@H](CC(C)C)NC(=O)C2OC2C(=O)O)NC(=O)CN2CCN(CC(=O)[O-])CCN(CC(=O)[O-])CCN(CC(=O)[O-])CC2)cc1C(C)C.[177Lu+3] (mixture of isomers),,mouse HT-29 xenograft,"24 h, biodistribution",reference: tumour over spleen,tumour-to-spleen ratio,3.74
